Measured values of several laboratories.
Compare with care: the assays were run in different laboratories.
FGFR3 isoform IIIc: FGFR3 isoform IIIc (unknown, UniProt Q61851)
Chain of UniProt Q61851 (whole entry, looked up): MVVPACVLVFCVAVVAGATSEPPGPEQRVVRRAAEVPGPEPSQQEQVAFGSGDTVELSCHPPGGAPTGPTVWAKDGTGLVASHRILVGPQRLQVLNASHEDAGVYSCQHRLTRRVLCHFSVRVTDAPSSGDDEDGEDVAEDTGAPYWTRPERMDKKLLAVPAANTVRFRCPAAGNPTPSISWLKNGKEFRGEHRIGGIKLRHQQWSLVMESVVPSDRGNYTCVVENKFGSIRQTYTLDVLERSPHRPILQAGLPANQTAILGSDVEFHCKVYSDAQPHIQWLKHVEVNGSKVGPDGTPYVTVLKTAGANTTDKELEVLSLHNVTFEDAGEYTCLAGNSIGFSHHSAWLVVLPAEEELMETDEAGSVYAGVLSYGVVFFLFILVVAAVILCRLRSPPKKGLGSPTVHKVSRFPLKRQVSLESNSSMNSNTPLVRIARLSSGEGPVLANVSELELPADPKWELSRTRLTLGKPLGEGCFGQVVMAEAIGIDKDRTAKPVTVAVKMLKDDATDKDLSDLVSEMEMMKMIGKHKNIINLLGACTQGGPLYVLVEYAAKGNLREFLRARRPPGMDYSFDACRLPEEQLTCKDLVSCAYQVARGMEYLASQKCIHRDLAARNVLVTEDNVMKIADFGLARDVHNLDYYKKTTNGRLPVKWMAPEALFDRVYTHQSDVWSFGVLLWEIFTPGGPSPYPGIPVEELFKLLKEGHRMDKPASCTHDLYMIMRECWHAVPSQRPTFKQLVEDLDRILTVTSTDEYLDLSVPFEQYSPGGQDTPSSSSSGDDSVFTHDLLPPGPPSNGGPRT
B1: LAIR1/rat CD4 d3+4 extracellular domain 22-165 (Homo sapiens); sequence looked up; chain QEEDLPRPSISAEPGTVIPLGSHVTFVCRGPVGVQTFRLERDSRSTYNDTEDVSQASPSESEARFRIDSVREGNAGLYRCIYYKPPKWSEQSDYLELLVKESSGGPDSPDTEPGSSAGPTQRPSDNSHNEHAPASQGLKAEHLY
B2: TIMP3 24-144 (Homo sapiens, UniProt P35625); sequence looked up; chain CTCSPSHPQDAFCNSDIVIRAKVVGKKLVKEGPFGTLVYTIKQMKMYRGFTKMPHVQYIHTEASESLCGLKLEVNKYQYLLTGRVYDGKMYTGLCNFVERWDQLTLSQRKGLNYRYHLGCN
B3: KLRK1 (Homo sapiens, UniProt P26718); sequence looked up; chain MGWIRGRRSRHSWEMSEFHNYNLDLKKSDFSTRWQKQRCPVVKSKCRENASPFFFCCFIAVAMGIRFIIMVTIWSAVFLNSLFNQEVQIPLTESYCGPCPKNWICYKNNCYQFFDESKNWYESQASCMSQNASLLKVYSKEDQDLLKLVKSYHWMGLVHIPTNGSWQWEDGSILSPNLLTIIEMQKGDCALYASSFKGYIENCSTPNTYICMQRTV
B4: UGT1A9 (Homo sapiens, UniProt O60656); chain GKLLVVPMDGSHWFTMRSVVEKLILRGHEVVVVMPEVSWQLGRSLNCTVKTYSTSYTLEDLDREFKAFAHAQWKAQVRSIYSLLMGSYNDIFDLFFSNCRSLFKDKKLVEYLKESSFDAVFLDPFDNCGLIVAKYFSLPSVVFARGILCHYLEEGAQCPAPLSYVPRILLGFSDAMTFKERVRNHIMHLEEHLLCHRFFKNALEIASEILQTPVTEYDLYSHTSIWLLRTDFVLDYPKPVMPNMIFIGGINCHQGKPLPMEFEAYINASGEHGIVVFSLGSMVSEIPEKKAMAIADALGKIPQTVLWRYTGTRPSNLANNTILVKWLPQNDLLGHPMTRAFITHAGSHGVYESICNGVPMVMMPLFGDQMDNAKRMETKGAGVTLNVLEMTSEDLENALKAVINDKSYKENIMRLSSLHKDRPVEPLDLAVFWVEFVMRHKGAPHLRPAAHDLTWYQYHSLDVIGFLLAVVLTVAFITFKCCAYGYRKCLGKKGRVKKAHKSKTH
Chain of UniProt Q29983 (whole entry, looked up): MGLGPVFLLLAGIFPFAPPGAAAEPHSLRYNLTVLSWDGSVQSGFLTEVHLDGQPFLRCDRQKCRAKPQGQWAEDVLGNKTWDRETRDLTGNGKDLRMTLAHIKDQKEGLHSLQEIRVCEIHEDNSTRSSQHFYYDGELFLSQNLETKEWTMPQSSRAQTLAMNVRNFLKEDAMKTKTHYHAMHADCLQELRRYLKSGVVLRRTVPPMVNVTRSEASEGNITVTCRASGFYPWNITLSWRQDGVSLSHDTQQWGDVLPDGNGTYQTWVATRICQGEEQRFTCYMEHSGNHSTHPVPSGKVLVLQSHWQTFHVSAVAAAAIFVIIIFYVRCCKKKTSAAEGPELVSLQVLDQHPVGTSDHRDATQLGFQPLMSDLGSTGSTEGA
Chain of UniProt Q12798 (whole entry, looked up): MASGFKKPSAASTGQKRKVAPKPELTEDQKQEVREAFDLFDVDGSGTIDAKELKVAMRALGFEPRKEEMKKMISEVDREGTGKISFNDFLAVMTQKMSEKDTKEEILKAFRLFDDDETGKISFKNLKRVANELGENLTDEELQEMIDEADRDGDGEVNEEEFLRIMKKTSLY
Chain of UniProt P70618 (whole entry, unmodified, looked up): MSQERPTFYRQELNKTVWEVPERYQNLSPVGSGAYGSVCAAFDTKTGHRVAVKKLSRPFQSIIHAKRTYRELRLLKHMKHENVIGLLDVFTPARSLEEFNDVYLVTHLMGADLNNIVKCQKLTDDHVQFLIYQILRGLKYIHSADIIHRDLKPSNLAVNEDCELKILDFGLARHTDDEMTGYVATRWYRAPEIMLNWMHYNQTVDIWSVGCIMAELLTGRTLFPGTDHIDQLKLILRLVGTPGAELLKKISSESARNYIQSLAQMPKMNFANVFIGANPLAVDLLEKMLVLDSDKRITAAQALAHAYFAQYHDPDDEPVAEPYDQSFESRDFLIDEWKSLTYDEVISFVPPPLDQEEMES
Chain of UniProt P55075 (whole entry, looked up): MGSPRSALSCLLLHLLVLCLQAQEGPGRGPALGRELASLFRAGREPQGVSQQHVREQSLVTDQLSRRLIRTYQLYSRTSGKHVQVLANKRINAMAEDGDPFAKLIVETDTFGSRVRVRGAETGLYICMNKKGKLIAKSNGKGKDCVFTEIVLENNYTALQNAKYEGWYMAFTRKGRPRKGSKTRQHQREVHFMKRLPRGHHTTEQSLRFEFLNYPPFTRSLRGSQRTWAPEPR
Chain of UniProt P02462 (whole entry, looked up): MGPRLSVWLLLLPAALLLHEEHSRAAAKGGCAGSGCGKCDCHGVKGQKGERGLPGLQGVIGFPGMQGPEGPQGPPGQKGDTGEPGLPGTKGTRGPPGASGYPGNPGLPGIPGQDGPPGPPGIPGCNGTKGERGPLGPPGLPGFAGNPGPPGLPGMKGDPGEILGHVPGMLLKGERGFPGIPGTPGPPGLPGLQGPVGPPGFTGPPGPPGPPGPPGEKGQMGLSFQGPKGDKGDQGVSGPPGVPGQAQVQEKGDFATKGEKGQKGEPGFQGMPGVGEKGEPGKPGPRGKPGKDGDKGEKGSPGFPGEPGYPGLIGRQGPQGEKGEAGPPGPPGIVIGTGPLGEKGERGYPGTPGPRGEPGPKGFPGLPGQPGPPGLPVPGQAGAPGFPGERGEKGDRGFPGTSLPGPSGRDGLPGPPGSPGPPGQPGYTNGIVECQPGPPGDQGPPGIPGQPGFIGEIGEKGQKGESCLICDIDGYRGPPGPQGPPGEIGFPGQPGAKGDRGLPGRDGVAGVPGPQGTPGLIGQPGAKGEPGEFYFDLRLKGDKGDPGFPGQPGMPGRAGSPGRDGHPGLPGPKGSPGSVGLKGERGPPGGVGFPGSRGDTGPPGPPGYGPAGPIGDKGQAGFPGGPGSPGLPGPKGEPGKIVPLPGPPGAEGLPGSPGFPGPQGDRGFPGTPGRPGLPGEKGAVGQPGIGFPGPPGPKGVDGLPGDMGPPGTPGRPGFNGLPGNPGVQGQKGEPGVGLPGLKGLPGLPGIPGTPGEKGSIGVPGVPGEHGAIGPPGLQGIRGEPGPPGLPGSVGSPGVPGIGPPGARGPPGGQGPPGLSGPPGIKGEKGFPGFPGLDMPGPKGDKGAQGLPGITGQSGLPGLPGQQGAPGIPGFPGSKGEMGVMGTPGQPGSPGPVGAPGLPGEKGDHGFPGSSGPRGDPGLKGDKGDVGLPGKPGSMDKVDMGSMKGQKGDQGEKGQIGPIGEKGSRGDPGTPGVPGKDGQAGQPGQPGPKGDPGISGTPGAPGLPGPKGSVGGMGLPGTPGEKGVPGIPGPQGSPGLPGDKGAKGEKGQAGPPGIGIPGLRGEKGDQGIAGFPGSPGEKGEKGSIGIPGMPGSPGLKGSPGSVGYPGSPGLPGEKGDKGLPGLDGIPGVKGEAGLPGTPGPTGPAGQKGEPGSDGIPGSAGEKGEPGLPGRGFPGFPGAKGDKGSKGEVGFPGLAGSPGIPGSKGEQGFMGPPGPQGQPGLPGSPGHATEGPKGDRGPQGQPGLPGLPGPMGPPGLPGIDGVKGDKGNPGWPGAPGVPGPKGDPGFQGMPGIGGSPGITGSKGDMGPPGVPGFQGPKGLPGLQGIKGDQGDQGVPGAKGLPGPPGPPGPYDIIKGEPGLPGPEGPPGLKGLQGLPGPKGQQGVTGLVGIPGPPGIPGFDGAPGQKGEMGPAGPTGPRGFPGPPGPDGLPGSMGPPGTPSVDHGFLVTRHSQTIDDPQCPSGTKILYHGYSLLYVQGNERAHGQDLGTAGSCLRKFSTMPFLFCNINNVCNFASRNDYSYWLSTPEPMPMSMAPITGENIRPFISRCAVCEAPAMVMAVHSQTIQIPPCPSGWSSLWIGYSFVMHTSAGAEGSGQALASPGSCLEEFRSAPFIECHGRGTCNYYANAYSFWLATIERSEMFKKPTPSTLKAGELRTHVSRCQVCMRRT
Chain of UniProt Q9HBX9 (whole entry, looked up): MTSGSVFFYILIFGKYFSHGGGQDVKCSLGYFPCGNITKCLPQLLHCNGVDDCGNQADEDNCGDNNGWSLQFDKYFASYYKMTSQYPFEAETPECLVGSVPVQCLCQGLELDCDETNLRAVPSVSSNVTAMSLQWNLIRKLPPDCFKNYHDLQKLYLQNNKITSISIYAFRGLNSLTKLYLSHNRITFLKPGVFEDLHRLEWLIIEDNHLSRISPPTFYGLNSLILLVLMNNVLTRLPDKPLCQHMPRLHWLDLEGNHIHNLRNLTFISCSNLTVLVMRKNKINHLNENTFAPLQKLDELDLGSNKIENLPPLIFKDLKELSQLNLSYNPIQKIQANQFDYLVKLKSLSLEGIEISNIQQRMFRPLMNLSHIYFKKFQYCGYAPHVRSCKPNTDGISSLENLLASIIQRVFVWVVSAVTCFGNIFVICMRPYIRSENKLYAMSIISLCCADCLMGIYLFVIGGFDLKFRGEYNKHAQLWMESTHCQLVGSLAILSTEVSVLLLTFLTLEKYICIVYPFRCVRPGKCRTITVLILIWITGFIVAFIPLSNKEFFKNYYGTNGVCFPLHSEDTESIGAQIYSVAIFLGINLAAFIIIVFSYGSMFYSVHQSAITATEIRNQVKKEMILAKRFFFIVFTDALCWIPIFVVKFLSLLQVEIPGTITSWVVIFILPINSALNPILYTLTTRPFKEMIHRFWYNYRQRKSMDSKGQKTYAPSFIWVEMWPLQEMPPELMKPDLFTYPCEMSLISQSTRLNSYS

`FGF8 (Homo sapiens, UniProt P55075)` gave a cell proliferation of 45% (FGFR3 isoform IIIc; cell proliferation, MTT; BaF3-FGFR3c; 20 nM, 48 h, together with: chondroitin sulfate D 4.9 µg/mL; relative to: FGF 1 with heparin, higher = more proliferation).
`RLN2 mature` gave a pEC50 of 10.8 (RXFP1 (Homo sapiens, UniProt Q9HBX9); cAMP, agonist, cAMP reporter gene assay; HEK293T).
For `B1`, the response was 2500 RU (LILRB4/rat CD4 d3+4 extracellular domain 24-238 (Mus musculus); SPR; multivalent bead assay).
The cell attachment of `Itga1/Itgb1 whole, on cells (Mus musculus)` is reported as 56% (COL4A1 (Homo sapiens, UniProt P02462); cell attachment assay; MLEC; together with: function-blocking α1β1 integrin antibody; relative to: control IgG or PBS, higher = more attachment).
For `Ac-NWKLLAKGLLIRERLKR-NH2 (XPC 847-863 (Homo sapiens); N-acetyl; C-terminal amide)`, “molecule per partner” read 0.61 (CETN1, phosphothreonine (Homo sapiens, UniProt Q12798); ITC; peptide).
`YANQLKFRKKKLKFCK (SETD1B D-site peptide (Homo sapiens))` gave an IC50 of 8 µM (Mapk14 D315S/D316E/E317A, pT180, pY182 (Rattus norvegicus, UniProt P70618); kinase activity, inhibitor, competitive kinase inhibition assay; peptide; together with: ATP 1 mM).
`BCR/ABL1 fusion (Homo sapiens)` — result for “time to half-maximal phosphorylation”: < 2 min (Abltide-p40 fusion Abltide at C-terminus; substrate phosphorylation; K-562, lysate; competing substrates; lower = faster).
`B2 (TIMP3 24-144)` gave a Ki of 0.00013 µM (ADAMTS4 213-837 (Homo sapiens, UniProt O75173); inhibitor, steady-state kinetics; 1 h, pH 7.5, 37 °C).
With `B3 (KLRK1)` the koff was 4.36 s⁻¹ (MICA extracellular domain 24-299 (Homo sapiens, UniProt Q29983); micropipette adhesion frequency; 2D, in situ).
`B4 (UGT1A9)` gave a Vmax/Km of 41 µL/min/mg (O=c1oc2cc(O)ccc2c(-c2ccccc2)c1-c1ccccc1; steady-state kinetics; pH 7.4, 37 °C).
The cell proliferation of `FGF8b (Homo sapiens)` is reported as 31% (FGFR3 isoform IIIc; cell proliferation, MTT; BaF3-FGFR3c; 20 nM, 48 h, together with: heparosan 4.9 µg/mL; relative to: FGF 1 with heparin, higher = more proliferation).
For `ADM2 mature (Homo sapiens)`, “cAMP decay time constant” read 2.65 min (CALCRL/RAMP2 whole, on cells (Homo sapiens); cAMP, antagonist, CAMYEL BRET; COS-7; 100 nM agonist).
With `H-ARPCA-NH2 (PTX3 100-104, C-terminal amide (Homo sapiens); C-terminal amide)` the ID50 was 500 µM (FGF2 18 kD form (Homo sapiens); cell proliferation, antagonist; peptide, GM7373; 3-1000 µM, together with: FGF2 0.55 nM).
